Experimental data pooled from the literature.
Observed: cell growth or viability

Structure (SMILES) | cell line | assay | setting | CC50 [µM]
Nc1ccn(C[C@@H](CO)OCP(=O)(O)O)c(=O)n1 | ARPE-19 | neutral red | – | > 100
Cn1cc2c3c1C(=O)C(NCCc1ccc(O)cc1)=CC3=[N+](C)CC2 | HeLa | MTT | 72 h | 0.78
COc1cc(/C=C/C(=O)C(=Cc2cccc(O)c2)C(=O)/C=C/c2ccc(O)c(OC)c2)ccc1O | WRL68 | MTT | 48 h | 0.19
COC1=CC2=[N+](C)CCc3c[nH]c(c32)C1=O | HeLa | MTT | 72 h | 5
COc1cc(F)c(-c2c(Cl)nc(-c3cccs3)nc2NCC2(C)COC2)c(F)c1 | HEK293 | resazurin | 48 h | ~50
CCC[C@H](CC)Oc1ccc(C(C)(C)C)cc1NC(=O)c1nnn(-c2cc(OC)ccc2OC)c1C | SNU-C4 | ATP luminescence | 24 h | > 30
CC1=C(Cn2ccnn2)C(=O)c2ccccc2C1=O | L6 | – | – | 6.24
COc1cc(C)c(-c2c(C)cc(OC)c3c(=O)cc(-c4ccc(C(F)(F)F)cc4)oc23)c2oc(-c3ccc(C(F)(F)F)cc3)cc(=O)c12 | HS27 | MTT | 24 h | > 200
CCOC(=O)c1cn(CC(c2cn(C)c3ccc(C)cc23)c2cn(C)c3ccc(C)cc23)c(C)c1C(=O)OC | DH82 | MTS | 24 h | > 20
CC1(F)CN(C(=O)Cn2c(=O)c(C(=O)NCc3ccc(Cl)cc3)cc3nc(N4CCNC4=O)cnc32)C1 | MRC5 | CCK-8 | – | > 40
CCC[C@H](CC)Oc1ccc(C(=O)NCCOCCOCCOCC(=O)N[C@H](C(=O)N2C[C@H](O)C[C@H]2C(=O)NCc2ccc(-c3scnc3C)cc2)C(C)(C)C)cc1NC(=O)c1nnn(-c2cc(OC)ccc2OC)c1C | SNU-C4 | ATP luminescence | 24 h | > 30
CN1CCN(c2cnc3c(cc(C(=O)NCc4ccc(Cl)cc4)c(=O)n3CC(=O)N3CC(C)(F)C3)n2)C1=O | MRC5 | – | – | > 40
CC1=C(Cc2cn(Cc3ccccc3)nn2)C(=O)c2ccccc2C1=O | L6 | – | – | 49.2
N=C(N)c1ccc(OCCCCCOc2ccc(C(=N)N)cc2)cc1 | DH82 | MTS | 24 h | > 20
COc1cc(OC)c2c(=O)cc(-c3ccccc3)oc2c1 | HS27 | MTT | 24 h | > 200
CNCCN1CCN(c2cnc3c(cc(C(=O)NCc4ccc(Cl)cc4)c(=O)n3CC(=O)N3CC(C)(F)C3)n2)C1=O | MRC5 | – | – | 23.3
COc1cc(C)c(-c2c(C)cc(OC)c3c(=O)cc(-c4ccc(Br)cc4)oc23)c2oc(-c3ccc(Br)cc3)cc(=O)c12 | HS27 | MTT | 24 h | > 200
CC1(F)CN(C(=O)Cn2c(=O)c(C(=O)NCc3ccc(Cl)cc3)cc3nc(N4CCCC4=O)cnc32)C1 | MRC5 | – | – | 15.8
CNCCCOc1cc(F)c(-c2c(Cl)nc(-c3cccs3)nc2N[C@H](C)C(C)C)c(F)c1 | HEK293 | resazurin | 48 h | 1.76
CSc1ccc(C(=O)/C=C/c2cc(C)c(OC(C)(C)C(=O)O)c(C)c2)cc1 | LX-2 | ATP luminescence | 48 h, serum-free | 4.19

Structure (SMILES) | cell line | assay | setting | CC50 [µM]
COC(=O)c1c(C)ncn1CC(c1c[nH]c2ccccc12)c1c[nH]c2ccccc12 | DH82 | MTS | 24 h | > 20
CC1(F)CN(C(=O)Cn2c(=O)c(C(=O)NCc3ccc(Cl)cc3)cc3nc(N4CCN(CC(=O)O)C4=O)cnc32)C1 | MRC5 | CCK-8 | – | > 40
CC(C)[C@@H](C)Nc1nc(-c2cccs2)nc(Cl)c1-c1c(F)cc(O)cc1F | HEK293 | resazurin | 48 h | 21
COc1cc(C)c(-c2c(C)cc(OC)c3c(=O)cc(-c4ccc(N(C)C)cc4)oc23)c2oc(-c3ccc(N(C)C)cc3)cc(=O)c12 | HS27 | MTT | 24 h | > 180
CC(C)[C@@H](C)Nc1nc(-c2cccs2)nc(Cl)c1-c1c(F)cc(C#N)cc1F | HEK293 | resazurin | 48 h | > 50
CC1(F)CN(C(=O)Cn2c(=O)c(C(=O)NCc3ccc(Cl)cc3)cc3nccnc32)C1 | MRC5 | CCK-8 | – | > 40
Fc1cc(F)c(-c2c(Cl)nc(-c3cccs3)nc2NC2CCC2)c(F)c1 | HEK293 | resazurin | 48 h | > 50
O=C1c2[nH]cc3c2C(=NCC3)c2c(-c3ccc(O)cc3)c[nH]c21 | HeLa | MTT | 72 h | 0.6
CC1=C(Cn2cc(CO)nn2)C(=O)c2ccccc2C1=O | L6 | – | – | 6.69
COc1cc(/C=C2\CC/C(=C\c3ccc(O)c(OC)c3)C2=O)ccc1O | WRL68 | MTT | 48 h | 2.16
CC1(CNc2nc(-c3cccs3)nc(Cl)c2-c2c(F)cc(N)cc2F)COC1 | HEK293 | resazurin | 48 h | 37.3
Cc1cc(O)c2c(=O)cc(-c3ccc(N(C)C)cc3)oc2c1-c1c(C)cc(O)c2c(=O)cc(-c3ccc(N(C)C)cc3)oc12 | HS27 | MTT | 24 h | > 200
CC1=C(Cc2cn(CCO)nn2)C(=O)c2ccccc2C1=O | L6 | – | – | 17.6
COC(CNC1=CC2=NCCc3c[nH]c(c32)C1=O)c1c[nH]c2ccccc12 (stereo not shown) | HeLa | MTT | 72 h | 2
Fc1cc(F)c(-c2c(Cl)nc(-c3cccs3)nc2NCC2CCC2)c(F)c1 | HEK293 | resazurin | 48 h | > 50
COc1cc(/C=C/C(=O)C(=Cc2ccc([N+](=O)[O-])cc2)C(=O)/C=C/c2ccc(O)c(OC)c2)ccc1O | WRL68 | MTT | 48 h | 0.53
NC1CCN(S(=O)(=O)c2cc(C(=O)Nc3cc(F)c(F)c(F)c3)ccc2F)CC1 | HepG2.2.15 | CCK-8 | 6 days | 47.6
COc1cc(C)cc2oc(-c3ccc(C(F)(F)F)cc3)cc(=O)c12 | HS27 | MTT | 24 h | > 200
Nc1nc2c(ncn2COCCO)c(=O)[nH]1 | B-95-8 | ATP luminescence | 5 days | > 100
CC1(CNc2nc(-c3cccs3)nc(Cl)c2-c2c(F)cc([N+](=O)[O-])cc2F)COC1 | HEK293 | resazurin | 48 h | > 50

Some of these lines once more:
Structure (SMILES) | cell line | assay | setting | CC50 [µM]
CC1(CNc2nc(-c3cccs3)nc(Cl)c2-c2c(F)cc(N)cc2F)COC1 | HEK293 | resazurin | 48 h | 37.3
COC(=O)c1c(C)ncn1CC(c1c[nH]c2ccccc12)c1c[nH]c2ccccc12 | DH82 | MTS | 24 h | > 20
CC1(F)CN(C(=O)Cn2c(=O)c(C(=O)NCc3ccc(Cl)cc3)cc3nc(N4CCN(CC(=O)O)C4=O)cnc32)C1 | MRC5 | CCK-8 | – | > 40
N=C(N)c1ccc(OCCCCCOc2ccc(C(=N)N)cc2)cc1 | DH82 | MTS | 24 h | > 20
